Published values gathered from unrelated publications.
± gives the spread as reported.

SMILES	target or system	test	test system	conditions	scale	endpoint	result
CN[C@@](C)(C[18F])C(=O)O	SK-OV-3 tumour model	–	host not given, liver	2 h, tumour-bearing	–	tracer uptake	2.5 %ID/g
CSCC[C@@H]1NC(=O)[C@H](CC(=O)O)NC(=O)CNC(=O)[C@H](CCCNC(=N)N)NC(=O)[C@H](C)NC(=O)[C@H](CCC(=O)O)NC(=O)[C@H](CCCNC(=N)N)NC(=O)[C@@H]2CSSC[C@@H]3NC(=O)[C@H](CO)NC(=O)[C@H]([C@@H](C)O)NC(=O)[C@@H]4CCCN4C(=O)[C@H](C)NC(=O)[C@H](Cc4c[nH]c5ccccc45)NC(=O)[C@H](CC(=O)O)NC(=O)CNC(=O)[C@H](CCCNC(=N)N)NC(=O)CNC(=O)[C@H](CCC(N)=O)NC(=O)[C@@H]4CCCN4C(=O)[C@@H](NC(=O)CNC(=O)C(C)F)CSSC[C@H](NC(=O)CNC(=O)[C@H](C)NC(=O)[C@H](CC(C)C)NC(=O)[C@H](CSSC[C@@H](C(=O)NCC(N)=O)NC(=O)[C@H]([C@@H](C)O)NC(=O)[C@H](CCCNC(=N)N)NC(=O)[C@@H]4CCCN4C1=O)NC(=O)[C@H](CC(=O)O)NC(=O)[C@H](CO)NC(=O)[C@H](CC(=O)O)NC(=O)[C@H](CCC(N)=O)NC(=O)[C@H](CO)NC3=O)C(=O)N[C@@H](C(C)C)C(=O)N2 (stereo partly drawn) [fluorine-18 labelled]	–	–	nude mouse, U-87 MG xenograft, bone	intravenous, 2.5 h, added: cyclo(RGDyK) co-injected	–	tissue uptake	0.37 ± 0.25 %ID/g
[123I]c1cncc(OC[C@@H]2CCN2)c1	–	SPECT	human, hippocampus	intravenous bolus plus infusion, 7.7 mCi	reference: tissue over plasma	tissue/plasma ratio	46.1
CC[C@@]1(O)C(=O)OCc2c1cc1n(c2=O)Cc2cc3c(CN(C)C)c(O)ccc3nc2-1	–	–	human, plasma	oral, 2.5 mg, multiple doses, patients	–	Tmax	1.99 h
CC[C@H](C)[C@H](NC(=O)[C@@H](N)CCCNC(=N)N)C(=O)N[C@H](C(=O)N1CCC[C@H]1C(=O)N[C@@H](C)C(N)=O)C(C)C	–	–	healthy volunteers, both sexes, plasma	intravenous infusion, 3.0 mg/kg daily, day 7, multiple ascending dose	–	Tmax	0.0717 ± 0.00833 h
CNC(=O)c1ccc(-c2cnn3ccc(C(=O)N(C)c4ccc(Cl)c(C(=O)OC)c4)cc23)cc1	–	–	beagle dogs, both sexes, plasma	oral, 50 mg/kg/day, day 1	–	Tmax	0.917 h
C[C@H]1CNCCc2ccc(Cl)cc21	–	–	Sprague-Dawley rat, male, plasma	subcutaneous, 3 mg/kg, 120 min	–	plasma concentration	32.4 ± 1.07 ng/mL
Cc1cc(C(C#N)c2ccc(Cl)cc2)c(Cl)cc1NC(=O)c1cc(I)cc(I)c1O (stereo not drawn)	–	HPLC, non-compartmental	Corriedale lambs, parasitized, plasma	oral, 10 mg/kg	–	Tmax	57.1 ± 8.16 h
CN1C(=CC=CC=CC2=[N+](CCCCCC(=O)NCCCC[C@H](NC(=O)[C@H](CCCCNC(=O)COCCOCCOCCNC(=O)[C@H](Cc3ccccc3)NC(=O)[C@H](CCCNC(=N)N)NC(=O)[C@@H]3CCCN3C(=O)[C@H](CC(N)=O)NC(=O)[C@@H]3CCCN3C(=O)[C@H](CO)NC(=O)[C@@H](N)CCCCN)NC(=O)COCCOCCOCCNC(=O)[C@H](CCC(=O)O)NC(=O)[C@H](CCCNC(=N)N)NC(=O)[C@@H]3CCCN3C(=O)[C@H](CCCCN)NC(=O)[C@H](Cc3c[nH]cn3)NC(=O)[C@H](CCCNC(=N)N)NC(=O)[C@@H](N)CCC(N)=O)C(N)=O)c3ccc4ccccc4c3C2(C)C)C(C)(C)c2c1ccc1ccccc21	–	–	nude mice, OE33 xenograft, tumour	intravenous, 300 µM	–	Tmax	2 h
O[C@H]1CCCN[C@@H]1CCCn1cnc2c(Cl)c(Cl)ccc21	–	–	human, plasma	oral, 500 mg, single dose, healthy volunteers	–	Tmax	3.01 h
CCCCCOc1ccc(-c2cc(-c3ccc(C(=O)N[C@H]4C[C@@H](O)[C@@H](O)NC(=O)[C@@H]5[C@@H](O)[C@@H](C)CN5C(=O)[C@H]([C@H](O)CC(N)=O)NC(=O)[C@H]([C@H](O)[C@@H](O)c5ccc(O)c(OS(=O)(=O)O)c5)NC(=O)[C@@H]5C[C@@H](O)CN5C(=O)[C@H]([C@@H](C)O)NC4=O)cc3)no2)cc1	–	–	young infants at least 1000 g, plasma	intravenous infusion, 7 mg/kg/day, day 4, median, 1 h infusion, repeat dosing	–	Tmax	1.1 h
C#C[C@]1(O)CC[C@H]2[C@@H]3CCC4=CC(=O)CC[C@@H]4[C@H]3CC[C@@]21CC	–	–	HIV-positive women, ritonavir arm, serum	oral, dose not given, steady state, median, added: ritonavir	–	Tmax	2 h
c1cc([C@H]2CC[C@]3(CC2)OO[C@]2(O3)C3CC4CC(C3)CC2C4)ccc1OCCN1CCOCC1	–	–	human, plasma	oral, 800 mg, single dose, fasted	–	Tmax	3 h
O=c1[nH]c(Cc2ccccn2)nc2c1cnn2C1CCOCC1	–	–	healthy men, extensive metabolizers, plasma	oral, 5 mg single dose, tablet, median	–	Tmax	0.63 h
CNC(C)Cc1ccc2c(c1)OCO2 (racemic)	–	visual analog scale, item: Lonely	human	oral, 0.75 mg/kg, mean over session, unit not given	reference: pre-dose baseline	mood rating	4.8

Some of these lines once more:
SMILES	target or system	test	test system	conditions	scale	endpoint	result
CC[C@@]1(O)C(=O)OCc2c1cc1n(c2=O)Cc2cc3c(CN(C)C)c(O)ccc3nc2-1	–	–	human, plasma	oral, 2.5 mg, multiple doses, patients	–	Tmax	1.99 h
